Results gathered from unrelated publications.
A part holds a random share of what one study measured.

Series 1 — technique: RNA Bind-n-Seq; molecule type: RNA; matrix: in vitro; tested at: not given; relative to: input RNA pool; direction: higher = stronger binding
Target: RING finger protein unkempt homolog, zinc fingers 1-6, GST-SBP tag (UNK, Homo sapiens, UniProt Q9C0B0, residues 30-357)
Chain of UniProt Q9C0B0 (30-357, looked up): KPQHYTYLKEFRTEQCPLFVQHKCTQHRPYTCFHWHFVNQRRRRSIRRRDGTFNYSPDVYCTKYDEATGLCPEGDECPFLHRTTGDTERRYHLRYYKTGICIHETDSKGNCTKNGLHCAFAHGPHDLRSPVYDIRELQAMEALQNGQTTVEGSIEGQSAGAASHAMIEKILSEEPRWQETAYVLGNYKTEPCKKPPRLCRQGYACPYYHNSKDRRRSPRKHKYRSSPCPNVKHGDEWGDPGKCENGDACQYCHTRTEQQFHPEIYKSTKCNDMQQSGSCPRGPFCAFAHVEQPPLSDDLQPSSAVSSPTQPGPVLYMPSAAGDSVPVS
Setting: RNA with constant flanks, human-mouse chimeric sites, ends assumed
Sequence	bound/input enrichment [ratio]
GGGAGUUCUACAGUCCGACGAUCUUGUGCAAUGAUGCUUGAGAUGGUUUUUGCAAAAGCAGAAAUCGCUGCAAGGUAAUCACAAUAGAUAAAAGUGGUAUUUUAAACCUUUGAAAUAAAUGGAUGUAACUGUACCUUGGUACACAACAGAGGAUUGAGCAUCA	0.671
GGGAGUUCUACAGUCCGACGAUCUACUACUAUGAUGGUGAUAUUGGAAAUUAUUAUUAUGGCCAGGGUCAUCCCAUGAAGCCUCAUAGAAUCCGGAUGACUCAUAACUUGCUGCUAAAUUAUGGUUUAUACCGAAAAAUGGAACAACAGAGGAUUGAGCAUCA	0.18
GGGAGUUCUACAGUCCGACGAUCCACAGAGCAGCACCUACCCCCUCCUCCUUUCCACACCUGCAAACUCUUUUGCCUGGGCUGAAUAUUUAGUGUUAAUUCAUCUCAGCUUUGAGGGCUCCUGUGGCAAAUUCCCGGAUUAAACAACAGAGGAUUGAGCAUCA	0.522
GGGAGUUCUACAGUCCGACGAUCGAGUCGAGCAAACUUGAAACAAUUCGUUAUCUUGCAGCCUCAGUGUUCACUUGCUUGUGGCAAUAGCUGGGGUUUUAUAUAGAUUCUAAGGAGAACUGACGAUGAUGCUGCCGCUGCUGCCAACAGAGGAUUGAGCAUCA	0.307
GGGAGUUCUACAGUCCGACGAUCCCCUCCCCGGGCCACCCACCCCUCCCGGCUCCCCGCCGAGAUCCAGGUUUCUUCUGUUUUCAUAGCAAAUAAGAAAAAUGUUCUACGCACAUUUUGUCCUCAGUAAAAGAGGGCCUCUGGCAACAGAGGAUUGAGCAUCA	2.23
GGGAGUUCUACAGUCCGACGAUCUGGCGCCUGCGCUCCCCACUCGUGUUUGUAUUUUUAUUUUUAUAAGAUACAUGUAUUUGUAAUAGAUCUUUUGUUACAUAAUGCUGAAAUGCUACUGGAGAUUAUGAAAAAUGUUUCAAUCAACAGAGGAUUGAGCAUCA	0.523
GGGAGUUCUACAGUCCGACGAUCUUGAAAACAAACUGAUUCAAGUUUGAAUAUCACAAUGUUAGCUUUCUAAUUCCAUAAAAGUACUUGGUUUUUACAGUUUAUAAUCUGACAUCACCCCAGCGCCAUUUGUAAAGAGCAACUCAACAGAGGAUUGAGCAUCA	0.427
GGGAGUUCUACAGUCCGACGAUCGCAAAGGAUGAUGAGGCGGCAGCUGUUGCCCUUUCCUCCCUGAUUCAUGCUUUGGAUGAGUUAAACAUGGUCGCCAUCGUCCGAUAUGCUUAUGACAAAAGAUCUAAUCCUCAAGUCGGUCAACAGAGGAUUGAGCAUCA	0.24

Series 2 — technique: protein binding microarray; molecule type: double-stranded DNA, one strand shown; matrix: in vitro; tested at: not given; relative to: not given; direction: higher = stronger binding
Target: Histone acetyltransferase KAT6A, both winged helices, GST fusion (KAT6A, Homo sapiens, UniProt Q92794, residues 1-181)
Setting: 8-mer, flanks averaged, mean of 2 arrays, mostly near background
Residues (chain): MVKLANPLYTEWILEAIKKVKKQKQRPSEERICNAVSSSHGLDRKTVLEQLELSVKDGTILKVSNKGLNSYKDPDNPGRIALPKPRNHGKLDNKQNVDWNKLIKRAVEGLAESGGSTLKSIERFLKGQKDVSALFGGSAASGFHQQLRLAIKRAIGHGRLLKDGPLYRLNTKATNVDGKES
Sequence	E-score
CTCTAACC	-0.153
CTGTCAGA	-0.0146
CGTGTCCA	0.00393
AGCCACCA	-0.147
TAAAAGAA	0.0282
CGAGTCGC	0.101
GACTAGTC	-0.152
CTACGACC	-0.00488
CAGACTGA	-0.00413
AATTGAAG	-0.142
GTAGGCGA	-0.0646
ACTTTACC	-0.0347
CGCTGCAC	0.243
AGCCTACC	-0.12
GCTATCAC	0.0774
CTACGAAC	-0.0692
ACTTACCC	0.00069
ATCACCCG	0.186
AATCTACC	0.0463
AGGATCCG	0.0594
AGCTTTAC	-0.144
CGAGACAC	-0.0801
CTATCGAG	-0.0527
ATCAATCA	0.0958
AGGTCGCA	0.0891

Series 3 — technique: RNA Bind-n-Seq; molecule type: RNA; matrix: in vitro; tested at: 365 nM; relative to: no-protein control; direction: higher = stronger binding
Target: RNA binding protein fox-1 homolog 2, RRM domain, GST-SBP tag (RBFOX2, Homo sapiens, UniProt O43251-10, residues 100-194)
Setting: natural RNA segment, single round, ends assumed
Construct (chain): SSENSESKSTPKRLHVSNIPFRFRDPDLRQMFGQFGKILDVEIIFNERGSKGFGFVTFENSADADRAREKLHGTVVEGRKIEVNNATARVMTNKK
Sequence	RBNS enrichment (R)
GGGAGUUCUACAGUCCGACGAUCUUUGUAGCCUUCCGGCUACAUCCCCUUCCCAGUUGUGGACCAAUGCAUCUCUAGAGACAGAUACUAUCCAGCCAUCUGUCUGCCUUGUCUUUUGCAGUACUUCUCCAUGCUGGAAUUCUCGGGUGCCAA	0.307
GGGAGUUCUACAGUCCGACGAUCUUUUCCAUUCAGGCACCGAAAUAGUUAAUAUUUGAAAUAAGUCUUCAAAAGAAAACAUAAGAGAUUAUUGAGUUCUUGGGACUGGAUCCUUUAUUUCAUAAGUUCAGAUCUGGAAUUCUCGGGUGCCAA	0.562
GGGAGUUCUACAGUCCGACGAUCCAGGGGCUUAUAGCUGCUGUAUGAGAACAUAAAGACUAGUGCACAGUGCUAUCUCCAUCUACUGACUUGUGGUGUACACGUGCAUGUCUGGGUCUGUGGGUUUCUGUUGGUGGAAUUCUCGGGUGCCAA	1.22
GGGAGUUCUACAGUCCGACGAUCCGAACUGACAGGACACAGCAGGCUGGAGUUGGUGUUAGAUUGCUUCACAUUCUCUUGUCACCACCAAGAACUCCAAGUUUUUCGUUUUGUUUUGUUUUCAAAGUGCUUACUGGAAUUCUCGGGUGCCAA	0.439
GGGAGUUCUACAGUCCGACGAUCUUUAAGAAGAGCUAUUCAUCACUGUAAUUAUUAUUAUUUUCUACAAUAAAUGGGACCUGUGCACAGGAGGAAAUUUUAUUGUCUCUGAUUUCAACUGUGGAGGUGGGUGGUGGAAUUCUCGGGUGCCAA	0.531
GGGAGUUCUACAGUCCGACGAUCUAAAUAUUUUUUAAAAGAAACGGAUUUGAGCCUCCUUGAUUUUAAUAGAGAACUUCUAGUGUAUGGAUUUAAAGAUUUCUCUUUUUCAUUCAUAUACCAUUUUAUGAGUUUGGAAUUCUCGGGUGCCAA	0.573
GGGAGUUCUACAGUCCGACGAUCAUUCUGUAGCUUUAACUUGUAAACCACAUCUUUUUUGCACUUUUUUUAUAAGCAAAAACGUGCCGUUUAAACCACUGGAUCUAUCUAAAUGCCGAUUUGAGUUCGCGACAUGGAAUUCUCGGGUGCCAA	0.374
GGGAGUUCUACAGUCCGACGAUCGGCUGCUUGGAAGGAGCCAUGGCCUAGGGUUCAGGGAACUAGACUCUAUCCCAGUUGGGUUCAGACUGCUGUGACUGUGGACACGAUGCUCCUUGUUCUGGGCUCCAGUUUGGAAUUCUCGGGUGCCAA	0.419

Series 4 — technique: universal PBM; molecule type: double-stranded DNA, one strand shown; matrix: in vitro; tested at: not given; direction: higher = stronger binding
Target: Sal-like protein 4, full length isoform B (SALL4, Homo sapiens, UniProt Q9UJQ4-2, residues 1-616)
Setting: 8-mer, flanks averaged, mean of replicates
Sequence	E-score
GAAACAGA	0.064
AGTAGAGC	-0.0604
CGGACAGC	-0.222
ATCGAAAT	0.126
CTCTCGAA	-0.0369
CAGGTGGA	-0.22
ACGGGCAT	-0.173
TGAGAACA	0.0963
AGTTTACA	0.135
GGTGTTTA	0.0246
GAGCCCAA	-0.122
AAAGGGGT	-0.0276
CCTTGGAA	-0.00894
CTCCCACC	-0.223
TCCGATCA	-0.018
ATCTGAGA	-0.0374
ACAAAACG	0.132
TCTTGTCA	0.0451
TCCTCGAA	-0.0652
CGGGTGCC	-0.272

Some of these lines once more (series 3):
Sequence	RBNS enrichment (R)
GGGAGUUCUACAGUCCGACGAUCUUUGUAGCCUUCCGGCUACAUCCCCUUCCCAGUUGUGGACCAAUGCAUCUCUAGAGACAGAUACUAUCCAGCCAUCUGUCUGCCUUGUCUUUUGCAGUACUUCUCCAUGCUGGAAUUCUCGGGUGCCAA	0.307
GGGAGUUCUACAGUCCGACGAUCUUUUCCAUUCAGGCACCGAAAUAGUUAAUAUUUGAAAUAAGUCUUCAAAAGAAAACAUAAGAGAUUAUUGAGUUCUUGGGACUGGAUCCUUUAUUUCAUAAGUUCAGAUCUGGAAUUCUCGGGUGCCAA	0.562
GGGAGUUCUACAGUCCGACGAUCCAGGGGCUUAUAGCUGCUGUAUGAGAACAUAAAGACUAGUGCACAGUGCUAUCUCCAUCUACUGACUUGUGGUGUACACGUGCAUGUCUGGGUCUGUGGGUUUCUGUUGGUGGAAUUCUCGGGUGCCAA	1.22
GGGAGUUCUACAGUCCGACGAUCCGAACUGACAGGACACAGCAGGCUGGAGUUGGUGUUAGAUUGCUUCACAUUCUCUUGUCACCACCAAGAACUCCAAGUUUUUCGUUUUGUUUUGUUUUCAAAGUGCUUACUGGAAUUCUCGGGUGCCAA	0.439
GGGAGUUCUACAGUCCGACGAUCUUUAAGAAGAGCUAUUCAUCACUGUAAUUAUUAUUAUUUUCUACAAUAAAUGGGACCUGUGCACAGGAGGAAAUUUUAUUGUCUCUGAUUUCAACUGUGGAGGUGGGUGGUGGAAUUCUCGGGUGCCAA	0.531
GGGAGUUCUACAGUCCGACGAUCUAAAUAUUUUUUAAAAGAAACGGAUUUGAGCCUCCUUGAUUUUAAUAGAGAACUUCUAGUGUAUGGAUUUAAAGAUUUCUCUUUUUCAUUCAUAUACCAUUUUAUGAGUUUGGAAUUCUCGGGUGCCAA	0.573
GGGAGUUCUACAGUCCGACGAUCAUUCUGUAGCUUUAACUUGUAAACCACAUCUUUUUUGCACUUUUUUUAUAAGCAAAAACGUGCCGUUUAAACCACUGGAUCUAUCUAAAUGCCGAUUUGAGUUCGCGACAUGGAAUUCUCGGGUGCCAA	0.374
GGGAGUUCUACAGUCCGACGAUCGGCUGCUUGGAAGGAGCCAUGGCCUAGGGUUCAGGGAACUAGACUCUAUCCCAGUUGGGUUCAGACUGCUGUGACUGUGGACACGAUGCUCCUUGUUCUGGGCUCCAGUUUGGAAUUCUCGGGUGCCAA	0.419
